Measurements from different studies.
Numbers after ± are the reported error.
UniProt P06276, sequence (whole entry, looked up): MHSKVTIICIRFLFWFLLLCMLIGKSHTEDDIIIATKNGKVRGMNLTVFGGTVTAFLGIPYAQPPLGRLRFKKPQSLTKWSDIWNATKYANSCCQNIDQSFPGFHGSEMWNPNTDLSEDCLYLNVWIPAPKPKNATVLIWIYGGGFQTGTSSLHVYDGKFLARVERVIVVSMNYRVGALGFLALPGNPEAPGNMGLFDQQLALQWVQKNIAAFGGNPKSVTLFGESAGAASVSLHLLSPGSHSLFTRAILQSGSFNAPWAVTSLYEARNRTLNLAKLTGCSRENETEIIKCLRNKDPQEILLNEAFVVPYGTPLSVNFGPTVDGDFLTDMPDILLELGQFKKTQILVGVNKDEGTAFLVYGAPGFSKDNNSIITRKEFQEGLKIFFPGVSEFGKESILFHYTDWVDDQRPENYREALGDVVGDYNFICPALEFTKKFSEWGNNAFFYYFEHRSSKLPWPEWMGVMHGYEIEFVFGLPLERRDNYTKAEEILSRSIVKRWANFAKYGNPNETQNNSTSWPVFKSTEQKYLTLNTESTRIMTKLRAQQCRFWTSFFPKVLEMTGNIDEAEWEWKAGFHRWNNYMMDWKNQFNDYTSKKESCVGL

The IC50 of CC[C@@H](C)[C@H]1O[C@@H](c2c(O)c(-c3ccccc3)cn(OC)c2=O)[C@H](C)C[C@@H]1C is reported as > 10 µg/mL (SK-OV-3; cytotoxicity, neutral red; 48 h).
For Cc1cc(NC(=O)c2cc3c(=O)n4cccc(C)c4nc3n2C)ccc1Br, the viability was 83.2% (Vero; MTT; 1.6 µM, 24 (unit not given)).
O=c1ccc2ccccc2o1 has a chance response of 0.02% (NHEK; cell count; concentration not given, 24 h, heat and osmotic shock panel).
N=C(N)NCCC[C@H](NC(=O)[C@H](Cc1c[nH]c2ccccc12)NC(=O)[C@H](CCCNC(=N)N)NC(=O)[C@H](Cc1c[nH]c2ccccc12)NC(=O)[C@H](Cc1c[nH]c2ccccc12)NC(=O)[C@H](Cc1c[nH]c2ccccc12)NC(=O)[C@H](CCCNC(=N)N)NC(=O)[C@H](Cc1c[nH]c2ccccc12)NC(=O)[C@@H](N)CCCNC(=N)N)C(N)=O gave an LC50 of > 512 µM (PK-15).
For O=S(=O)(c1ccc(O)cc1)c1ccc(O)cc1, “early apoptotic cells” read 16.8 ± 1.48% (HepG2 spheroids, dissociated; annexin V-FITC/PI flow cytometry; 10 µM, 24 h).
For CC[C@H](C)[C@H](NC(=O)[C@H](CCCNC(=N)N)NC(=O)[C@H](Cc1c[nH]c2ccccc12)NC(=O)[C@H](CCCNC(=N)N)NC(=O)[C@H](Cc1c[nH]c2ccccc12)NC(=O)[C@H](Cc1c[nH]c2ccccc12)NC(=O)[C@H](Cc1c[nH]c2ccccc12)NC(=O)[C@H](CCCNC(=N)N)NC(=O)[C@H](Cc1c[nH]c2ccccc12)NC(=O)[C@H](CCCNC(=N)N)NC(=O)CN)C(N)=O, the LC50 was 92.3 µM (PK-15).
CCCN(CCC)[C@H]1CCc2c(F)ccc(O)c2C1 gave an IC50 of 0.631 µM (Plasmodium falciparum; 7G8).
For O=c1cc(-c2ccccc2)oc2c(O)c(O)ccc12, the IC50 was 79 µM (uninduced SH-SY5Y Aβ-GFP cells; cytotoxicity, MTT; 24 h).
Cc1cc(C(C)(C)c2ccc(O)c(C)c2)ccc1O gave a necrotic cells of 46.7 ± 9.48% (HepG2 spheroids; annexin V-FITC/PI flow cytometry; 1 µM, 96 h).
The CC50 of O=C1Nc2ccccc2/C1=C1\Nc2ccccc2\C1=N/O is reported as > 20 µM (Caco-2-F03).
The IC50 of O=C(NCCCNc1nc(Nc2cccc(CN3CCOCC3)c2)ncc1C1CC1)C1CCC1 is reported as 3.31 ± 0.22 µM (Cholinesterase (BCHE, Homo sapiens, UniProt P06276); inhibitor).
For C[S+](C)[O-], the CC50 was 1.38% (U138; MTS; 4 days).
O=C(O)C1=CC(=C(c2ccc(O)c(C(=O)O)c2)c2ccc(O)c(C(=O)O)c2)C=CC1=O has an IC50 of 7.94 µM (Plasmodium falciparum; 3D7).
For Oc1ccc(C(c2ccc(O)cc2)(C(F)(F)F)C(F)(F)F)cc1, “late apoptotic cells” read 22.3 ± 9.2% (HepG2 spheroids, dissociated; annexin V-FITC/PI flow cytometry; 0.01 µM, 96 h).

Excerpt of the above:
The IC50 of CC[C@@H](C)[C@H]1O[C@@H](c2c(O)c(-c3ccccc3)cn(OC)c2=O)[C@H](C)C[C@@H]1C is reported as > 10 µg/mL (SK-OV-3; cytotoxicity, neutral red; 48 h).
